# Assay results collected from several papers.
# Lines come from different studies, so protocols differ.
# Observed: cell growth or viability
SMILES,cell line,test,conditions,viability [%]
CC(=NNC(=O)c1ccccc1)c1ccc(Nc2nnc(-c3ccc(Cl)cc3)c3ccccc23)cc1,HepG2,MTT,"2.5 µM, 24 h",4.21
Cc1c(Cc2ccccc2)c(=O)oc2c(C)c(OCC(=O)NN=Cc3ccc(Cl)cc3)ccc12,MDA-MB-231,MTT,31.25 µg/mL,52.1
CC(=NNC(N)=S)c1ccc(Nc2nnc(-c3ccc(Cl)cc3)c3ccccc23)cc1,HepG2,MTT,"2.5 µM, 24 h",8.13
COc1ccc(NC(=O)c2c(Nc3ccccc3)sc(C(=O)NN=Cc3ccccc3)c2NC(C)=O)cc1,HCT-116,SRB,"10 nM, 48 h",93.5
CC(=NNC(=O)c1ccccc1Cl)c1ccc(Nc2nnc(-c3ccc(Cl)cc3)c3ccccc23)cc1,HepG2,MTT,"10 µM, 24 h",3.2
CNC(=O)c1cc(Oc2ccc(NC(=O)Nc3ccc(Cl)c(C(F)(F)F)c3)cc2)ccn1,HCT-116,SRB,"100 µM, 48 h",34.2
Cc1ccc(C(CS(=O)(=O)c2ccccc2)=NNc2nc(-c3ccc(OCCCCOc4ccc(-c5csc(NN=C(CS(=O)(=O)c6ccccc6)c6ccc(C)cc6)n5)cc4)cc3)cs2)cc1,SK-MEL-23,MTT,"0.4 µM, 48 h",75.9
CC(=NNC(=O)c1ccccc1O)c1ccc(Nc2nnc(-c3ccc(Cl)cc3)c3ccccc23)cc1,HepG2,MTT,"2.5 µM, 24 h",37.9
COc1ccc(NC(=O)c2c(Nc3ccccc3)sc(C#N)c2NC(=O)CNc2ccc(C)cc2)cc1,HCT-116,SRB,"1 µM, 48 h",75.4
CC(=NNC(=S)Nc1ccccc1)c1ccc(Nc2nnc(-c3ccc(Cl)cc3)c3ccccc23)cc1,HepG2,MTT,"1.25 µM, 24 h",50
NC(=S)NN=C(CS(=O)(=O)c1ccccc1)c1ccc(F)cc1,SK-MEL-23,MTT,"0.4 µM, 48 h",77.3
CCc1c(C)c2ccc(OCc3nnc(S)n3N)c(C)c2oc1=O,MDA-MB-231,MTT,250 µg/mL,2.9
COc1ccc(NC(=O)c2c(Nc3ccccc3)sc(C(=O)NN=Cc3ccc(Br)cc3)c2NC(C)=O)cc1,HCT-116,SRB,"1 nM, 48 h",99.7
O=C(Nc1ccc(Oc2nnc(-c3ccc(Cl)cc3)c3ccccc23)cc1)c1ccccc1,HepG2,MTT,"1.25 µM, 24 h",4.88
COc1ccc(NC(=O)Nc2cccc(-c3cn(Cc4ccccc4C)nn3)c2)cc1,Huh-7,CCK-8,"50 µM, 48 h",51.5
COc1ccc(NC(=O)c2c(Nc3ccccc3)sc(C#N)c2NC(=O)CNc2ccccc2)cc1,HCT-116,SRB,"0.1 µM, 48 h",81.2
CCc1c(C)c2ccc(OCC(=O)NNC(=S)Nc3ccccc3)c(C)c2oc1=O,MDA-MB-231,MTT,250 µg/mL,6.71
COc1ccc(NC(=O)c2c(Nc3ccccc3)sc(C(=O)NN=Cc3ccc(OC)c(O)c3)c2NC(C)=O)cc1,HCT-116,SRB,"100 µM, 48 h",29.1
Cc1ccc(C(CS(=O)(=O)c2ccccc2)=NNC2=NC(=O)C(=NNc3ccccc3)S2)cc1,SK-MEL-23,MTT,"25 µM, 48 h",28.6
CC(=O)Nc1cccc(-n2c(=O)n(C3CC3)c(=O)c3c(Nc4ccc(I)cc4F)n(C)c(=O)c(C)c32)c1,Calu-6,resazurin,"1.56 nM, 72 h",87.1
COc1ccc(NC(=O)c2c(Nc3ccccc3)sc(C#N)c2NC(=O)CNc2ccc(O)cc2)cc1,HCT-116,SRB,"100 µM, 48 h",56.9

# Repeated from above:
SMILES,cell line,test,conditions,viability [%]
CC(=NNC(=O)c1ccccc1)c1ccc(Nc2nnc(-c3ccc(Cl)cc3)c3ccccc23)cc1,HepG2,MTT,"2.5 µM, 24 h",4.21
Cc1c(Cc2ccccc2)c(=O)oc2c(C)c(OCC(=O)NN=Cc3ccc(Cl)cc3)ccc12,MDA-MB-231,MTT,31.25 µg/mL,52.1
CC(=NNC(N)=S)c1ccc(Nc2nnc(-c3ccc(Cl)cc3)c3ccccc23)cc1,HepG2,MTT,"2.5 µM, 24 h",8.13
